Measurements of several laboratories.
Numbered parts are unrelated; each lists some results of a single study.

Sample 1
Target: Hepatocyte nuclear factor 3-beta, forkhead domain (FOXA2, Homo sapiens, UniProt Q9Y261, residues 142-269)
Method: protein-binding microarray
Form: double-stranded DNA, one strand shown
Medium: in vitro
Concentration: not given
Notes: k-mer, scored over probes, only values ≥0.25
Reading: higher = stronger binding
Residues (chain): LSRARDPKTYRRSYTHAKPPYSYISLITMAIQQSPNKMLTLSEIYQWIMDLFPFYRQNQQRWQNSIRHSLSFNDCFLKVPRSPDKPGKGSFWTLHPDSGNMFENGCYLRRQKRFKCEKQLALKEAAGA
Oligonucleotide	E-score
AACATTAC	0.31
ATGTATTA	0.365
TCAAATAA	0.324
TTAACCAA	0.32
ATACATAT	0.412
AAACAGTG	0.26
AACTATAG	0.259
ATGATTAC	0.267
TAATGATA	0.28
GTATATTA	0.406
AAATGGCA	0.274
ATAACAAG	0.312
ATGTATAC	0.344
AAATATAC	0.318
AATGTGGA	0.305
ACGTTAAA	0.29
TACATAGA	0.272
ATATGTAC	0.396
AATGTATA	0.317
AGTAAAGA	0.273
ATATAATA	0.376
CTGTATTA	0.275
ACTAGTAA	0.255
AGGTAAAT	0.271
ACAATGCT	0.27

Sample 2
Target: Interferon regulatory factor 5, full length, phosphomimetic (IRF5, Homo sapiens, UniProt Q13568-2, residues 1-514, K96S/S451D/S453D/S456D/S462D)
Method: protein-binding microarray
Form: double-stranded DNA, one strand shown
Medium: in vitro
Concentration: 250 nM
Notes: 60-bp whole probe
Added: salmon DNA 0.4 mg/ml
Reference: random background probes
Reading: higher = stronger binding
Shared flanks, not repeated: GCCTAGCAC … GTCTTGATTCGCTTGACGCTGCTG
Oligonucleotide	log fluorescence [z-score]
GACGGACTGCTTCTCCTGAAGTGCTAG	-0.638
TTAGGTTTGGACTATCGGTTAGTGCTA	5.13
TCATATATATTATATATTACTGTGCTA	0.965
TTAGATTTCGGGACTGTATTAGTGCTA	2.81
GACGGTTTCGACTTTCGGGACGTGCTA	7.78
GACGAACTGGGGACTGGAAACGTGCTA	-0.44
GACGGACTGGGGTATAGGGACGTGCTA	-0.338
TGTGGGCGTAGGCCCGGAGCGTGCTAG	-0.901
TCAGGTTTGAGTCTTCTACTGTGCTAG	-0.258
GACGGTATCGGGTTTCTGGACGTGCTA	2.55
TCATTTATACCTTAGGTACTGTGCTAG	0.0357
TTAGATTTCAGTCTCTATTAGTGCTAG	2.21
GACGAACTGGGGACTGGGGACGTGCTA	-0.305
TCCCACAGTCGAAAGTCTGCGTGCTAG	1.42
GACGGACTGGGTATCGTGACGTGCTAG	-0.225
TTAGGTTTTCTTTCCCTTTAGTGCTAG	1.62
TGTCCTGTCTACATGGGTGTGTGCTAG	-0.252
GACGGTATCCTACTCCTGACGTGCTAG	-0.0674
TTAGAACTGAGAATGGATTAGTGCTAG	-0.0342
TTAATGTGTTCTTGGATTCGGTGCTAG	0.295
TCACTGGTCACTCTCTGACTGTGCTAG	0.00452

Sample 3
Target: RNA binding protein fox-1 homolog 2, RRM domain, GST-SBP tag (RBFOX2, Homo sapiens, UniProt O43251-10, residues 100-194)
Method: RNA Bind-n-Seq
Form: RNA
Medium: in vitro
Concentration: 365 nM
Notes: natural RNA segment, single round, ends assumed
Reference: no-protein control
Reading: higher = stronger binding
Shared flanks, not repeated: GGGAGUUCUACAGUCCGACGAUC … UGGAAUUCUCGGGUGCCAA
Target sequence (chain): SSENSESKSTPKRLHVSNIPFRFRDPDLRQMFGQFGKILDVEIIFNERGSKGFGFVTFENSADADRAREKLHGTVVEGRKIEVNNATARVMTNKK
Oligonucleotide	RBNS enrichment (R)
UUGUGGUAGAAGGGCAGGAGGCCCCAAGGUUGGAAAUAAGAGGGUUCCCACCCAGAACCCUUCUUGUGAGAGAUGCGCACUUUAAAGGGUGAUUUUGUUCCAGAUGUCUA	1.15
CUCCGUAGGCUUGGGGAUGGUUCCCUCAAAGUGAGCCACUAUUAGAUUUGCCCAUCAGGGGAAAAGAAAUGGGGUUAUAUCCAUUAGGAAAAUCCCAUUUUAUAGAUAGA	0.33
CACUCCAGAACGGCCACGGGUUUCCCAGAGUUCUAUGGUCUUCCCAAGAGAAUUUUUAAUUGUAAAUGCAGACUUGGGAAGGACUUGGACUUUUAACCUGGUUUUGCUUU	0.488
UUUAUCUUCUUGCACAUGUUUGUACAGAAAUCACCUUCAUCCUUGUGGUGCUUACACACACCCAGUUGUCUCCACAGCUCUGAUACCUUUGCCUUCUGUUCUCCUCUCUA	0.392
GUUCCAUUUGACUGUUUGCAUUGAGAUUGCAAUGUGCGCAAUUUUUUUUGUAGUUGUGGCAUCUUGUUGACAUCGAAUAUGACUUUGAUAAUAAAUACCGGUUCCUGAAA	0.785
UUAUAUAUAUAUAUCUAUUUAUUUUAUAUGUGUGUUUGUGAGGAAGAGGAUAUUUGUCAUUUCCUUAAGGCUCUGGAGUGUUGUGUUCGAUUCUGCACAGCCCAGCCUCC	0.435
CUCUGCAUUUAGAAGUAUACACAGUACAACUGUUAAUUCUGUAAGUAAUUUUUAUAAUUAUGAUGUAACUCUUAUCCUUCCUUAAAACAUUAAAAUAAACCCUUUAUGUG	1.06
UCUUCGGAAGAACCCCAACUAUGAUCUUGAAAAAGUGGCUUCUAGAGACCCUGGCUGCAGCGGAAUUUUUUGUUUUUAGCAGGCUGUCCUGCCUGCUAUGAGGGGUGGAU	0.926
UCUCUUUUUCAAGUUGUCCUUUCUUCACCCUUUACUGAUUUAAUACAGAAUAACAAUCUUAUUUUCUAUUUGAUAACUAUGGUAUCAUAUUGGGUUACUGUAUAAGGAAA	0.611

Sample 4
Target: RING finger protein unkempt homolog, zinc fingers 1-6, GST-SBP tag (UNK, Homo sapiens, UniProt Q9C0B0, residues 30-357)
Method: RNA Bind-n-Seq
Form: RNA
Medium: in vitro
Concentration: not given
Notes: RNA with constant flanks, human-mouse chimeric sites, ends assumed
Reference: input RNA pool
Reading: higher = stronger binding
Shared flanks, not repeated: GGGAGUUCUACAGUCCGACGAUC … CAACAGAGGAUUGAGCAUCA
Construct (chain): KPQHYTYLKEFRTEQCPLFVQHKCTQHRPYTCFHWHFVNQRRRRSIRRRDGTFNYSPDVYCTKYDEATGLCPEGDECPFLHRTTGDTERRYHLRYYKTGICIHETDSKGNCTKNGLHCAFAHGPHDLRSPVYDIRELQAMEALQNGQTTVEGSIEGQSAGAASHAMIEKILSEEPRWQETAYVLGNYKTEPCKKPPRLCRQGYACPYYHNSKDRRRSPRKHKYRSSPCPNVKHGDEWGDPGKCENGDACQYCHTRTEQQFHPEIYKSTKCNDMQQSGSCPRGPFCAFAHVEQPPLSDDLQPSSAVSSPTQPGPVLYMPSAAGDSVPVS
Oligonucleotide	bound/input enrichment
AAUUUCCUGUCAUACUUUGUAGCAAGACACAUCAGACUUACAGAGCACCUGGCCACAUUCUAGGUUUGUGUUAUUUCUCAGCUAUGGAUAUGAUCAAAGAGUGAAAAUGCUUAACUAAUG	0.189 ratio
GGCCUGGGACCGUCCUGGGCUAGUACAAAUAGCGGCAUGGAGGCUCAAGAGGAAAGUUUUGUUAGUGGAGGCAGUGGUAGAGGCCGUCAUGUACGGUCCUUUACUCGAUAGAUGUGUUCU	0.606 ratio
CACACACUCUUCUGCGGGACCCUCAUCUUGCAGGCCCGGGCCUAUGUGGGACCCCGUGUCCUGGCAGUGGUGACUCGCACAGGGUUCUGCACGGCAAAAGGGGGCCUGGUGAGCUCCAUC	0.0776 ratio
UAAGUCCUGUGCCAGCACUUCGCUCAUAAAGUUUUAAAUUCAAGAAAAAUAGUGUUUGUUUCCUGAUUAUUGUAUCCAAUACUUUGCCUAGUAUGUAACUCAUGCUUACUGAUAAUAAAA	1.29 ratio
AAAUCGUGUGUGUCAAAUAUUGAAAGUGCUUUAUCUACACUCCAGUAUGUAAGCAGUAUAGUAGUUUCUUUAGAGAAUAGGUCUGCCAUUGUAAAGUACAAUGCAAGCUUAGUCACUCCA	2.13 ratio
GCAAGAGAUGAUGAGGCGGCAGCUGUUGCCCUUUCCUCUCUCGUUCAUGCUUUGGAUGACUUAGACAUGGUCGCCAUCGUCCGAUAUGCUUAUGACAAAAGAUCUAAUCCUCAAGUUGGU	0.121 ratio
UGACAAGCACGAGCAUCAGCCAUGCCUUUCCUUGACAUACAGAAAAAGCUGGGCAUCAACAUAGAUCGGCACUUUAUGUUCCUAAGCGCAGAACAGCCCUAUAAGAACGCCGCUCGGUGC	0.0818 ratio
AACAGAUUUCUCAAGCACAUUCCAAGCGAGAAUGCUGGGGUGAUCAUUGUUGCCCAUGUGCCUUCUGACUGAGCUUUUAAUUAAUUGCAUGUUACAUCUUUCCUUCACUCCAGAAUUGUU	0.218 ratio
CAGUCCCCGUGUCCCAGUGCAGGACGAUGUGAACAAAAACUCAAAGCGGACCCUCUACUGUAGUUGAUGAUUCUCGAAAUGUGCUAUUGUUUUUAAACUUUUUUUUUUUUUUUUUAAAGA	1.09 ratio
ACCAUUUUCGCGGUUCAGGCUUUGUGUGUAGUUCACUUACGGUAUUAAAUUAUUAUUGCCCUUAGUUUAUAAUAAGGAUAAUUGCAUUUAAAGAGGUUACUGAAUGUUGUUAUUGUUCUU	3.75 ratio
AGAUUCCCCCUCCUGAGACCUCCUCCGAAGUUGGAGUCUCUUACAGAUGCCUCAUCCCCUGUUAGCGUUUUAGUUUGGACCACACAACCUUGGACAAUUCCCGCCAAUGAAGCUGUUUGC	2.03 ratio
